Published values collected from several papers.
± gives the spread as reported.

Structure (SMILES) | assay | system | setting | endpoint | result
O=C1NC2(CC2)COc2ncc(F)cc2[C@H]2COCCN2c2ccn3ncc1c3n2 |  | Sprague-Dawley rat, male, spleen | oral, 5 mg/kg/day, 4 weeks dosing, end of recovery | organ-to-body weight ratio | 0.226 ± 0.021%
C[C@H](O)[C@@H](NC(=O)[C@H]1CCCN1C(=O)[C@@H](CCCCN)NC(=O)[C@@H](CO)NC(=O)[C@@H](Cc1ccc(O)cc1)NC(=O)[C@@H](CC(N)=O)NC(=O)CCOCCOCCOCCNC(=O)CN1CCN(CC(=O)O)CCN(CC(=O)O)CCN(CC(=O)O)CC1)C(=O)N[C@H](CC(=O)O)C(=O)N[C@H](CCCNC(=N)N)C(=O)N[C@H](CCC(N)=O)C(=O)N[C@H](Cc1ccc(O)cc1)C(=O)N[C@H](Cc1c[nH]cn1)C(=O)N[C@H](Cc1ccccc1)C(N)=O [gallium-68 labelled] |  | BALB/c nude mice U-87 MG tumour, kidney | intravenous, 1.85 MBq, 2 h, radiolabelled | tissue uptake | 5.2 ± 0.31 %ID/g
CC[C@H](C)[C@H](NC(=O)[C@H](CCCNC(=N)N)NC(=O)[C@H](CCCCN)NC(=O)[C@H](Cc1ccc(O)cc1)NC(=O)[C@H](CC(=O)O)NC(=O)[C@H](C)NC(=O)CNC(=O)CCOCCOCCOCCNC(=O)CN1CCN(CC(=O)O)CCN(CC(=O)O)CCN(CC(=O)O)CC1)C(=O)N[C@H](C(=O)N[C@@H](CC(C)C)C(=O)N[C@@H](CCCCN)C(=O)N[C@H](C(=O)N[C@@H](CC(N)=O)C(N)=O)C(C)C)[C@@H](C)O [copper-64 labelled] | ex vivo gamma counting | C57BL/6J male mice, B16-F10 tumour, thymus | intravenous, 1.85 MBq, 5 min | tissue uptake | 1.15 ± 0.278 %ID/g
CN1Cc2cc(Cl)ccc2-n2c(nnc2C2CCN(c3cccc([18F])n3)CC2)C1 |  | C57BL/6 mouse male, muscle | intravenous, 3.7 MBq, 15 min | tissue uptake | 2.36 ± 0.38 %ID/g
CCCC[C@H]1C(=O)N(C)[C@@H](CCCC)C(=O)N[C@@H](CCCNC(=O)CN2CCN(CC(=O)O)CCN(CC(=O)O)CCN(CC(=O)O)CC2)C(=O)N[C@H](C(=O)NCC(N)=O)CSCC(=O)N[C@@H](Cc2ccc(O)cc2)C(=O)N(C)[C@@H](C)C(=O)N[C@@H](CC(N)=O)C(=O)N2CCC[C@H]2C(=O)N[C@@H](Cc2c[nH]cn2)C(=O)N[C@@H](CC(C)C)C(=O)N(C)CC(=O)N[C@@H](Cc2c[nH]c3ccccc23)C(=O)N[C@@H](CO)C(=O)N[C@@H](Cc2c[nH]c3ccccc23)C(=O)N1C [gallium-68 labelled] |  | NOD/SCID mice with CHO-hPD-L1 xenograft, brain | 120 min post injection | tissue uptake | 0.37 ± 0.16 %ID/g
Cc1ccccc1-c1ccc(-c2nc(-c3ccc(CN(C)CCCC(=O)O)c([18F])c3)no2)cc1C(F)(F)F |  | Sprague Dawley rats, male, fat | 30 min | tissue uptake | 0.1 ± 0.02 %ID/g
CSCC[C@H](NC(=O)CNC(=O)[C@H](CCCCN)NC(=O)[C@H](CC(C)C)NC(=O)[C@@H]1CCCN1C(=O)[C@H](CO)NC(=O)[C@H](Cc1c[nH]cn1)NC(=O)[C@H](Cc1c[nH]c2ccccc12)NC(=O)[C@H](CCCNC(=N)N)NC(=O)[C@H](CC(C)C)NC(=O)[C@H](CCCNC(=N)N)NC(=O)[C@H](Cc1c[nH]c2ccccc12)NC(=O)[C@H](CS)NC(=O)CCCCCNC(=O)CN1CCN(CC(=O)O)CCN(CC(=O)O)CCN(CC(=O)O)CC1)C(=O)O [copper-64 labelled] | ex vivo biodistribution | BALB/c nude mice, kidney | intravenous, dose not given, 18 h, Huh-7 tumour-bearing | tissue uptake | 12.1 %ID/g
CC[C@H](C)[C@H](NC(=O)[C@H](CCCCN)NC(=O)CNC(=O)[C@H](CC(C)C)NC(=O)[C@H](Cc1ccccc1)NC(=O)[C@H](CCCCN)NC(=O)[C@H](CO)NC(=O)[C@H](Cc1ccccc1)NC(=O)[C@H](Cc1c[nH]c2ccccc12)NC(=O)[C@H](CCC(N)=O)NC(=O)[C@@H](NC(=O)[C@H](Cc1ccccc1)NC(=O)CCCCCNC(=O)CN1CCN(CC(=O)O)CCN(CC(=O)O)CCN(CC(=O)O)CC1)C(C)C)C(=O)N[C@@H](CCC(=O)O)C(=O)N1CCC[C@H]1C(=O)N[C@@H](CC(=O)O)C(=O)N[C@H](C(=O)N[C@@H](CO)C(=O)N[C@@H](CCC(N)=O)C(=O)N[C@H](C(=O)N[C@@H](CCC(N)=O)C(=O)N[C@@H](CC(=O)O)C(=O)N1CCC[C@H]1C(=O)N[C@@H](CC(N)=O)C(=O)N[C@@H](CC(=O)O)C(=O)N[C@@H](CCC(N)=O)C(=O)N[C@@H](Cc1ccc(O)cc1)C(=O)N[C@@H](CCC(=O)O)C(=O)N1CCC[C@H]1C(=O)N[C@@H](Cc1ccccc1)C(=O)O)C(C)C)C(C)C [copper-64 labelled] |  | C57BL/6 mice, male, naive, skeletal muscle | 0.5 h | tissue uptake | 1.19 ± 0.1 %ID/g
O=C([O-])CNC(=O)CN1CCN(CC(=O)NCC(=O)[O-])CCN(CC(=O)NCC(=O)[O-])CCN(CC(=O)NCC(=O)[O-])CC1.[177Lu+3] |  | Sprague-Dawley rat, heart | intravenous (tail vein), dose not given, 2 h | tissue uptake | 0.007 ± 0.003 % injected dose/g
CC(C)C[C@@H](NC(=O)[C@@H](CCCNC(=N)N)NC(=O)[C@@H](Cc1c[nH]cn1)NC(=O)[C@@H](Cc1c[nH]c2ccccc12)NC(=O)[C@@H](Cc1c[nH]cn1)NC(=O)[C@@H](Cc1ccccc1)NC(=O)[C@H](NC(=O)[C@@H](Cc1ccc(O)cc1)NC(=O)CNC(=O)CNC(=O)CCOCCOCCOCCNC(=O)CN1CCN(CC(=O)O)CCN(CC(=O)O)CC1)[C@H](C)O)C(=O)N[C@H](CC(N)=O)C(=O)N1CCC[C@@H]1C(=O)O [gallium-68 labelled] |  | C57BL/6 mice, male, bone | intravenous, 1.85 MBq, 60 min, with: GP12 blocking | tissue uptake | 0.46 ± 0.25 %ID/g

A few entries again:
Structure (SMILES) | assay | system | setting | endpoint | result
CC(C)C[C@@H](NC(=O)[C@@H](CCCNC(=N)N)NC(=O)[C@@H](Cc1c[nH]cn1)NC(=O)[C@@H](Cc1c[nH]c2ccccc12)NC(=O)[C@@H](Cc1c[nH]cn1)NC(=O)[C@@H](Cc1ccccc1)NC(=O)[C@H](NC(=O)[C@@H](Cc1ccc(O)cc1)NC(=O)CNC(=O)CNC(=O)CCOCCOCCOCCNC(=O)CN1CCN(CC(=O)O)CCN(CC(=O)O)CC1)[C@H](C)O)C(=O)N[C@H](CC(N)=O)C(=O)N1CCC[C@@H]1C(=O)O [gallium-68 labelled] |  | C57BL/6 mice, male, bone | intravenous, 1.85 MBq, 60 min, with: GP12 blocking | tissue uptake | 0.46 ± 0.25 %ID/g
